Measurements from different studies.
Protocols differ between the studies behind these lines. ± marks the error that the study gave.
Nuclear receptor subfamily 2 group C member 2 ligand-binding domain: Nuclear receptor subfamily 2 group C member 2, ligand-binding domain (Homo sapiens, UniProt P49116)
UniProt P49116, sequence (whole entry, looked up): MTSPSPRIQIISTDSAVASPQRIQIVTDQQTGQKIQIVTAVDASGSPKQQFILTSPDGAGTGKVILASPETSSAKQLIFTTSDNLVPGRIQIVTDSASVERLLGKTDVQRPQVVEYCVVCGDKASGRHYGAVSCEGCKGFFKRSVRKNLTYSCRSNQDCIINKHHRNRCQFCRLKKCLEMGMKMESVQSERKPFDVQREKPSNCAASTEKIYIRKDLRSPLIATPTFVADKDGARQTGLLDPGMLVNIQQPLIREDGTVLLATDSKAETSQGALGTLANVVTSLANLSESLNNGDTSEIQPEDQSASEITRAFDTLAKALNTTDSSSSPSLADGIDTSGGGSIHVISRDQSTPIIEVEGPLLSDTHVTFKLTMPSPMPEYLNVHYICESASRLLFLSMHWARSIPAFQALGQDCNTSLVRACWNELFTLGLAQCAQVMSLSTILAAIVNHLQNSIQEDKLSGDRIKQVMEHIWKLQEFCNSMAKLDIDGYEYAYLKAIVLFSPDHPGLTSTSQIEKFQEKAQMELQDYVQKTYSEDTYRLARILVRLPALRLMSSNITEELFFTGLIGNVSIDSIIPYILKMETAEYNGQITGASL
SHB SH2 domain: SH2 domain-containing adapter protein B, SH2 domain (SHB, Homo sapiens, UniProt Q15464)
UniProt Q15464, sequence (whole entry, looked up): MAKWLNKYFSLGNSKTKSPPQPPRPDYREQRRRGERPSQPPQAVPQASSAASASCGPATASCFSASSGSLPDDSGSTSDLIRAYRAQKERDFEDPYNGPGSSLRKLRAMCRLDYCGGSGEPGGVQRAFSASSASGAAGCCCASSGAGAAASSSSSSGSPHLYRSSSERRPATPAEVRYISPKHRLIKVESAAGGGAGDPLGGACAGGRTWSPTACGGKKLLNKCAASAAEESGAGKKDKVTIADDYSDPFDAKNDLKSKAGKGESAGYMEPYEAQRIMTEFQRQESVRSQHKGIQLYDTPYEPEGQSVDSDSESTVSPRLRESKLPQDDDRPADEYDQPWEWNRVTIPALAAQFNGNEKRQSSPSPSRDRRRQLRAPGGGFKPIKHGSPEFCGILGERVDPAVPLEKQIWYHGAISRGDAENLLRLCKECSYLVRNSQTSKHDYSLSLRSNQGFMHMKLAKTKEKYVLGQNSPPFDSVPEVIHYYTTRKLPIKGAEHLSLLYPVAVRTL
JAK3 SH2 domain: Tyrosine-protein kinase JAK3, SH2 domain (JAK3, Homo sapiens, UniProt P52333)
UniProt P52333, sequence (whole entry, looked up): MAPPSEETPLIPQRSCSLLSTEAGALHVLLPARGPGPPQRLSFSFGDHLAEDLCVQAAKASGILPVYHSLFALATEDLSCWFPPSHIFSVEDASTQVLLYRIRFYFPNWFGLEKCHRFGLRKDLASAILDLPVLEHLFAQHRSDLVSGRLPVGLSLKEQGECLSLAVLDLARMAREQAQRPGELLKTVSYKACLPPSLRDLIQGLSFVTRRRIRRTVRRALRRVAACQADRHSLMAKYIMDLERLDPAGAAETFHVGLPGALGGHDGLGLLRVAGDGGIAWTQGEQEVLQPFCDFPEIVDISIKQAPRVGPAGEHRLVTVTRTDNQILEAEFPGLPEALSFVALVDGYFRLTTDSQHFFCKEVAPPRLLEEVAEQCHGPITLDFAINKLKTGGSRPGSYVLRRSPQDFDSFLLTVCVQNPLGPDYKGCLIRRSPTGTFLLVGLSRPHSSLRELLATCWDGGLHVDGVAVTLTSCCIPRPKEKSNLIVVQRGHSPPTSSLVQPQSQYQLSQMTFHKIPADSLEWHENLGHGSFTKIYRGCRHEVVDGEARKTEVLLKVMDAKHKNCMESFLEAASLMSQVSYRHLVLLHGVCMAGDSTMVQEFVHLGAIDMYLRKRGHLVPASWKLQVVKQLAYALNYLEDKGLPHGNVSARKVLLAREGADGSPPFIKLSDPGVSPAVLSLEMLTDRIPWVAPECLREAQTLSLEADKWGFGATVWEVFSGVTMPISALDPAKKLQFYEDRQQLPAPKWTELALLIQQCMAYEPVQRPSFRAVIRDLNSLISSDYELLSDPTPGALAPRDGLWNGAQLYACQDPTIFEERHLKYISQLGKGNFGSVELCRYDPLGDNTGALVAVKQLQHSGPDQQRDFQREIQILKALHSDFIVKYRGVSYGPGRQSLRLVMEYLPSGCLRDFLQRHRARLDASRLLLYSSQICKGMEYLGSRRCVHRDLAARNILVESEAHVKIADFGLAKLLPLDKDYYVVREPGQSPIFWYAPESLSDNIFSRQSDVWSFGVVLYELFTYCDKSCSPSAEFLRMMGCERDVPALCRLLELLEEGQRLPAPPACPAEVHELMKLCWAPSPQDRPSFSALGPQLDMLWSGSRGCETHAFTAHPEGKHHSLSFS
UniProt P07948, sequence (whole entry, looked up): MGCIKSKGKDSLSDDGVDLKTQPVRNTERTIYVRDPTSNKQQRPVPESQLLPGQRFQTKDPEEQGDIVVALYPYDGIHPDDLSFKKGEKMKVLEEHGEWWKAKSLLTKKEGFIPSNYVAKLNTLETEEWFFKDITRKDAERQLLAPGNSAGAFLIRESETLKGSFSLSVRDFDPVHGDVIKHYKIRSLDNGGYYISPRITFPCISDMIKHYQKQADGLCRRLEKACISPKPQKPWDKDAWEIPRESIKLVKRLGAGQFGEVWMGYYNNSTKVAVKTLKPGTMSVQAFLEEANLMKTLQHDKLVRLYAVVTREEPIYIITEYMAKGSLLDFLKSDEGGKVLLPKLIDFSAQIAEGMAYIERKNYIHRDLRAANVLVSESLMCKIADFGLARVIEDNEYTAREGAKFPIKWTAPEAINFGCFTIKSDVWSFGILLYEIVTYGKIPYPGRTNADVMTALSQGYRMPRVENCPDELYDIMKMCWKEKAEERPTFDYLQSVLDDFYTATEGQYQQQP
UniProt P98170, sequence (whole entry, looked up): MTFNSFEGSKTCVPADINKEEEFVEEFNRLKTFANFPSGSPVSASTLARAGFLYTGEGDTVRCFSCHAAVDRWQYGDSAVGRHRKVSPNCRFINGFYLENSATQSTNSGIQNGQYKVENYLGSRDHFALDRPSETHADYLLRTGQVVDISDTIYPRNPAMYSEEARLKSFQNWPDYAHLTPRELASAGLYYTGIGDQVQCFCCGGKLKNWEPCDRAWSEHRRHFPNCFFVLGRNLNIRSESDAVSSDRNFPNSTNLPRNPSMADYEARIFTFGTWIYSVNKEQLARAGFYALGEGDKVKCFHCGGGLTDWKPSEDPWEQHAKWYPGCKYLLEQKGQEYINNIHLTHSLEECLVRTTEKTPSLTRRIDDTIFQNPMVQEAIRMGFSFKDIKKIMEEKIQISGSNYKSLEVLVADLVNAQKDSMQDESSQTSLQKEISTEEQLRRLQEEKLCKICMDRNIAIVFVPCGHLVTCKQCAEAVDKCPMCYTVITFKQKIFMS
UniProt P02829, sequence (whole entry, looked up): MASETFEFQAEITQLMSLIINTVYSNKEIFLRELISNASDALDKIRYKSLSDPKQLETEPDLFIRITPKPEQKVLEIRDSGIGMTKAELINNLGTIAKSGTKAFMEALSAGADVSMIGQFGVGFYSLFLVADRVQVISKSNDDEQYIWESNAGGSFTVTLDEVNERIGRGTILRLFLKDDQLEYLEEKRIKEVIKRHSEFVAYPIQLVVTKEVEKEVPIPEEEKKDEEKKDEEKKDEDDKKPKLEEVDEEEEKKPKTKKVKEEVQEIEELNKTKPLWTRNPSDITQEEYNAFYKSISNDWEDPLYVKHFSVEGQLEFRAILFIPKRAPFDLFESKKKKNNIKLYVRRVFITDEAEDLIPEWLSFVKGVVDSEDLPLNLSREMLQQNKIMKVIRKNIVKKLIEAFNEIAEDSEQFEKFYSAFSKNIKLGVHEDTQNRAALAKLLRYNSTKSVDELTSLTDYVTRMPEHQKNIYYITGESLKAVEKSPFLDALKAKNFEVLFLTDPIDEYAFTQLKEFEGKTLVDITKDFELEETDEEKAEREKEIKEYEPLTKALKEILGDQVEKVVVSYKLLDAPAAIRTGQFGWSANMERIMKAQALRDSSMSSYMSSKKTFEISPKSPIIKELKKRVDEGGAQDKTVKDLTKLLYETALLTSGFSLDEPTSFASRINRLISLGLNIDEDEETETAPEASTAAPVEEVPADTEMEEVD
UniProt P49760, sequence (whole entry, looked up): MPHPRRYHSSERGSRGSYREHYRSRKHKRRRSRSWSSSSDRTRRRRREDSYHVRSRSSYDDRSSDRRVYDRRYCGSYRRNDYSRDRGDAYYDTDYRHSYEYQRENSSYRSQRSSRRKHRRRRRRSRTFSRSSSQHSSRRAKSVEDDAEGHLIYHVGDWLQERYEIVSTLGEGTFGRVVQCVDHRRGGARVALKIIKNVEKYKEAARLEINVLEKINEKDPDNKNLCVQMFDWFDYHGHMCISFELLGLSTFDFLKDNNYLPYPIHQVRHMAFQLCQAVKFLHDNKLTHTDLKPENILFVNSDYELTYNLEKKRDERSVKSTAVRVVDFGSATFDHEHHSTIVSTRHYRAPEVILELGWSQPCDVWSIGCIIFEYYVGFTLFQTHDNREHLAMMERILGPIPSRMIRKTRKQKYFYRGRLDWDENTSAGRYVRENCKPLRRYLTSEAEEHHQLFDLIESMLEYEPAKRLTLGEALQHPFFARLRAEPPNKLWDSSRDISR
UniProt Q86WV6, sequence (whole entry, unmodified, looked up): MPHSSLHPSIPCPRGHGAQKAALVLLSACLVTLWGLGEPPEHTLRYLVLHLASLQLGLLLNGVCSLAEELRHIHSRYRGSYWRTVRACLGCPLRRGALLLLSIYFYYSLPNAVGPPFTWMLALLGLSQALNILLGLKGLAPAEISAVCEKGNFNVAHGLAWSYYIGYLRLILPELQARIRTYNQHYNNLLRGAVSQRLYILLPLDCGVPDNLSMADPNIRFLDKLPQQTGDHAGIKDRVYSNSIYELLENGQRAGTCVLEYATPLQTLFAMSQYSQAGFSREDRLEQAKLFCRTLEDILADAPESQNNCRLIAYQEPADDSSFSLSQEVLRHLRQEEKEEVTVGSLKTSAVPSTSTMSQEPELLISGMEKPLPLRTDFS

SMILES | target | test | test system | setting | Kd
CN1C(=O)CCS(=O)(=O)C1c1ccc(Cl)cc1 (stereo not shown) | Nuclear receptor subfamily 2 group C member 2 ligand-binding domain | SPR imaging | – | – | 0.052 nM
CSCC[C@H](NC(=O)[C@H](CC(=O)O)NC(=O)c1ccc2c(c1)C(=O)OC21c2ccc(N(C)C)cc2Oc2cc(N(C)C)ccc21)C(=O)N[C@@H](CO)C(=O)N[C@@H](CCCCN)C(=O)N[C@@H](CC(=O)O)C(=O)N[C@@H](CCC(=O)O)C(=O)N[C@@H](CO)C(=O)N[C@H](C(=O)N[C@@H](CC(=O)O)C(=O)N[C@@H](Cc1ccc(OP(=O)(O)O)cc1)C(=O)N[C@H](C(=O)N1CCC[C@H]1C(=O)N[C@@H](CCSC)C(=O)N[C@@H](CC(C)C)C(=O)N[C@@H](CC(=O)O)C(=O)N[C@@H](CCSC)C(=O)N[C@@H](CCCCN)C(=O)N[C@@H](CC(=O)O)C(=O)O)C(C)C)C(C)C | Tyrosine-protein kinase Lyn, SH2 domain (LYN, Homo sapiens, UniProt P07948) | binding | – | – | 597 nM
CC(C)C[C@H](NC(=O)CNC(=O)[C@H](CCC(=O)O)NC(=O)[C@H](CCC(N)=O)NC(=O)[C@H](Cc1ccccc1)NC(=O)[C@@H]1CCCN1C(=O)[C@@H](NC(=O)[C@H](C)N)[C@@H](C)O)C(=O)N[C@@H](CCCNC(=N)N)C(=O)N[C@H](C(=O)N[C@@H](Cc1ccccc1)C(=O)N[C@@H](CCCCN)C(=O)N[C@@H](CCCCN)C(=O)N[C@@H](CCCCN)C(=O)N[C@@H](CCCCNC(=O)CCCCCNC(=S)Nc1ccc2c(c1)C(=O)OC21c2ccc(O)cc2Oc2cc(O)ccc21)C(N)=O)[C@@H](C)O | E3 ubiquitin-protein ligase XIAP, BIR1 domain (XIAP, Homo sapiens, UniProt P98170) | fluorescence polarization | – | 30 min, pH 7.5, added: 20 nM FITC-labeled peptide | no binding
C[C@H](NC(=O)[C@@H](NC(=O)[C@H](CO)NC(=O)[C@H](Cc1c[nH]cn1)NC(=O)[C@@H]1CCCN1C(=O)[C@H](CC(=O)O)NC(=O)[C@H](CCC(N)=O)NC(=O)[C@H](Cc1ccc(OP(=O)(O)O)cc1)NC(=O)[C@H](Cc1c[nH]cn1)NC(=O)[C@@H]1CCCN1C(=O)[C@H](CC(=O)O)NC(=O)[C@H](CCCNC(=N)N)NC(=O)[C@H](CO)NC(=O)[C@@H]1CCCN1C(=O)[C@H](C)NC(=O)[C@@H]1CCCN1C(=O)[C@H](CC(N)=O)NC(=O)c1ccc2c(c1)C(=O)OC21c2ccc(N(C)C)cc2Oc2cc(N(C)C)ccc21)[C@@H](C)O)C(=O)N[C@@H](CC(=O)O)C(=O)O | SHB SH2 domain | binding | – | – | 991 nM
CC(=O)N[C@H](C(=O)N[C@@H](CC(N)=O)C(=O)N[C@@H](CCCCN)C(=O)N1CCC[C@H]1C(=O)N[C@@H](CC(C)C)C(=O)N1CCC[C@H]1C(=O)N1CCC[C@H]1C(=O)N[C@@H](CC(C)C)C(=O)N1CCC[C@H]1C(=O)N[C@H](C(=O)N[C@@H](C)C(N)=O)C(C)C)C(C)C | High osmolarity signaling protein SHO1, SH3 domain (SHO1, Saccharomyces cerevisiae, UniProt P40073) | binding, isothermal titration calorimetry | 50 mM sodium phosphate, 100 mM NaCl | pH 7.0, 25 °C | 3400 ± 300 nM
NCC(O)c1ccc(O)cc1 (racemic) | Nuclear receptor subfamily 2 group C member 2 ligand-binding domain | SPR imaging | – | – | 67.2 nM
Cc1cn([C@H]2C[C@H](O)[C@@H](COP(=O)(O)OP(=O)(O)OP(=O)(O)O)O2)c(=O)[nH]c1=O | DNA polymerase I, Klenow fragment (polA, Escherichia coli, UniProt P00582, C907S/D424A/L744C/Y766A) | nucleotide incorporation, substrate, single-turnover rapid quench | – | added: radiolabelled primer-template DNA | 150000 ± 40000 nM
CC[C@H](C)[C@H](NC(=O)c1ccc2c(c1)C(=O)OC21c2ccc(N(C)C)cc2Oc2cc(N(C)C)ccc21)C(=O)N[C@@H](CCCCN)C(=O)N[C@@H](CCC(=O)O)C(=O)N[C@@H](CC(=O)O)C(=O)N[C@@H](CO)C(=O)N[C@@H](Cc1ccccc1)C(=O)N[C@@H](CC(C)C)C(=O)N[C@@H](CCC(N)=O)C(=O)N[C@@H](CCCNC(=N)N)C(=O)N[C@@H](Cc1ccc(OP(=O)(O)O)cc1)C(=O)N[C@@H](CO)C(=O)N[C@@H](CO)C(=O)N[C@@H](CC(=O)O)C(=O)N1CCC[C@H]1C(=O)N[C@H](C(=O)NCC(=O)N[C@@H](C)C(=O)N[C@@H](CC(=O)O)C(=O)O)[C@@H](C)O | SHB SH2 domain | binding | – | – | 862 nM
COC1=C2C[C@@H](C)C[C@H](OC)[C@H](O)[C@@H](C)/C=C(\C)[C@H](OC(N)=O)[C@@H](OC)/C=C\C=C(/C)C(=O)NC(=C(C)C1=O)C2=O | ATP-dependent molecular chaperone HSP82, N-terminal domain (HSP82, Saccharomyces cerevisiae S288c, UniProt P02829) | binding, isothermal titration calorimetry | – | – | 16300 nM
CC(C)C[C@H](NC(=O)[C@@H](NC(=O)[C@H](CO)NC(=O)[C@H](CO)NC(=O)[C@@H](NC(=O)[C@H](CC(=O)O)NC(=O)[C@H](CC(C)C)NC(=O)[C@@H]1CCCN1C(=O)[C@H](CO)NC(=O)c1ccc2c(c1)C(=O)OC21c2ccc(N(C)C)cc2Oc2cc(N(C)C)ccc21)[C@@H](C)O)C(C)C)C(=O)N[C@@H](Cc1ccc(OP(=O)(O)O)cc1)C(=O)N[C@H](C(=O)N[C@@H](C)C(=O)N[C@H](C(=O)N[C@@H](CCC(N)=O)C(=O)N1CCC[C@H]1C(=O)N[C@@H](CC(N)=O)C(=O)N[C@@H](CCC(=O)O)C(=O)N[C@@H](CC(=O)O)C(=O)O)C(C)C)[C@@H](C)O | JAK3 SH2 domain | binding | – | – | 1030 nM
O=P(O)(O)Oc1c2c(c(OP(=O)(O)O)c3c1C1CC3c3cc4c(cc31)C1CC4c3ccccc31)C1CC2c2cc3c(cc21)C1CC3c2ccccc21 | Cdc25 peptide | fluorescence titration | PBS | – | ~30000 nM
C[N+](C)(C)[C@@H](Cc1c[nH]c(=S)[nH]1)C(=O)[O-] | Ergothioneine transport permease/ergothioneine binding protein EgtU, substrate-binding domain (egtU, Helicobacter pylori, UniProt B5Z7I3, S297F) | binding, isothermal titration calorimetry | – | substrate-binding domain | 34.1 nM
CSCC[C@H](N)C(=O)N[C@@H](CCC(=O)O)C(=O)N[C@@H](CCCCN)C(=O)N1CCC[C@H]1C(=O)N[C@@H](CC(C)C)C(=O)N1CCC[C@H]1C(=O)N[C@@H](CC(C)C)C(=O)O | Stimulator of interferon genes protein, H232R; C-terminal domain (STING1, Homo sapiens, UniProt Q86WV6, H232R) | binding to CTD, microscale thermophoresis | – | 5 min, pH 7.5, room temperature | 10700 nM
CC[C@H](C)[C@H](NC(=O)[C@H](CCC(N)=O)NC(=O)[C@@H](NC(=O)[C@@H]1CCCN1C(=O)[C@@H](NC(=O)[C@H](CO)NC(=O)[C@H](Cc1ccccc1)NC(=O)[C@@H]1CCCN1C(=O)[C@H](CCC(N)=O)NC(=O)[C@@H](N)CCSC)[C@@H](C)CC)C(C)C)C(=O)N[C@H](C(=O)N[C@@H](CC(C)C)C(=O)N[C@@H](CCC(N)=O)C(=O)NCC(=O)N[C@@H](CO)C(=O)N[C@@H](CCCNC(=N)N)C(=O)N[C@@H](CCCNC(=N)N)C(=O)N[C@@H](CCCNC(=N)N)C(=O)N[C@@H](CCC(N)=O)C(=O)NCC(=O)N[C@@H](CCCNC(=N)N)C(N)=O)[C@@H](C)O | Kcnma1 (Mus musculus, UniProt Q08460) | ion current, blocker, inside-out patch clamp | Xenopus oocytes | range over 0.5 µM, pH 7.0, 22–24 °C, at 0 mV, added: 10 µM cytosolic Ca2+ | 900 nM
Nc1nc2c(ncn2[C@@H]2O[C@H](COP(=O)(O)OP(=O)(O)OP(=O)(O)O)[C@@H](O)[C@H]2O)c(=O)[nH]1 | GTP 3',8-cyclase (moaA, Staphylococcus aureus, UniProt P69848, R268K) | binding, anaerobic ITC | – | 25 °C, R268K mutant | 1260 ± 930 nM
CC[C@H](C)[C@H](NC(=O)[C@@H](NC(=O)CNC(=O)[C@H](C)NC(=O)[C@@H](N)CCCNC(=N)N)C(C)C)C(=O)N[C@@H](CCCCN)C(=O)N[C@@H](CCCCN)C(=O)N[C@H](C(=O)O)[C@@H](C)O | Interferon regulatory factor 2-binding protein 2, RING domain (Homo sapiens, UniProt Q7Z5L9) | isothermal titration calorimetry | – | – | 12900 ± 1170 nM
CSCC[C@H](NC(=O)CNC(=O)[C@H](Cc1ccccc1)NC(=O)[C@H](CC(=O)O)NC(=O)CNC(=O)c1ccc2c(c1)C(=O)OC21c2ccc(N(C)C)cc2Oc2cc(N(C)C)ccc21)C(=O)N[C@@H](CO)C(=O)N[C@@H](CCCNC(=N)N)C(=O)N[C@@H](CC(=O)O)C(=O)N[C@H](C(=O)N[C@@H](Cc1ccc(OP(=O)(O)O)cc1)C(=O)N[C@@H](CO)C(=O)N[C@H](C(=O)N[C@@H](CC(=O)O)C(=O)N[C@@H](Cc1ccc(O)cc1)C(=O)N[C@@H](Cc1ccc(O)cc1)C(=O)N[C@@H](CCCNC(=N)N)C(=O)N[C@H](C(=O)N[C@@H](CC(=O)O)C(=O)O)C(C)C)[C@@H](C)O)C(C)C | JAK3 SH2 domain | binding | – | – | 746 nM
CCCCCCCCCCCCCCCC[N+](C)(C)C | Gdx-Clo mutant G10I/W16G/A17T/M39Y/A60T/A67I/K101N | tryptophan fluorescence | – | – | 6500 nM
CC[C@H](CO)Nc1nc(NCc2ccc(-c3ccccn3)cc2)c2ncn(C(C)C)c2n1 | Dual specificity protein kinase CLK2 (CLK2, Homo sapiens, UniProt P49760) | binding, competition affinity chromatography | SH-SY5Y cell extract | – | 6240 nM

A few entries again:
SMILES | target | test | test system | setting | Kd
CSCC[C@H](NC(=O)[C@H](CC(=O)O)NC(=O)c1ccc2c(c1)C(=O)OC21c2ccc(N(C)C)cc2Oc2cc(N(C)C)ccc21)C(=O)N[C@@H](CO)C(=O)N[C@@H](CCCCN)C(=O)N[C@@H](CC(=O)O)C(=O)N[C@@H](CCC(=O)O)C(=O)N[C@@H](CO)C(=O)N[C@H](C(=O)N[C@@H](CC(=O)O)C(=O)N[C@@H](Cc1ccc(OP(=O)(O)O)cc1)C(=O)N[C@H](C(=O)N1CCC[C@H]1C(=O)N[C@@H](CCSC)C(=O)N[C@@H](CC(C)C)C(=O)N[C@@H](CC(=O)O)C(=O)N[C@@H](CCSC)C(=O)N[C@@H](CCCCN)C(=O)N[C@@H](CC(=O)O)C(=O)O)C(C)C)C(C)C | Tyrosine-protein kinase Lyn, SH2 domain (LYN, Homo sapiens, UniProt P07948) | binding | – | – | 597 nM
CC(C)C[C@H](NC(=O)CNC(=O)[C@H](CCC(=O)O)NC(=O)[C@H](CCC(N)=O)NC(=O)[C@H](Cc1ccccc1)NC(=O)[C@@H]1CCCN1C(=O)[C@@H](NC(=O)[C@H](C)N)[C@@H](C)O)C(=O)N[C@@H](CCCNC(=N)N)C(=O)N[C@H](C(=O)N[C@@H](Cc1ccccc1)C(=O)N[C@@H](CCCCN)C(=O)N[C@@H](CCCCN)C(=O)N[C@@H](CCCCN)C(=O)N[C@@H](CCCCNC(=O)CCCCCNC(=S)Nc1ccc2c(c1)C(=O)OC21c2ccc(O)cc2Oc2cc(O)ccc21)C(N)=O)[C@@H](C)O | E3 ubiquitin-protein ligase XIAP, BIR1 domain (XIAP, Homo sapiens, UniProt P98170) | fluorescence polarization | – | 30 min, pH 7.5, added: 20 nM FITC-labeled peptide | no binding
